Results pooled from the literature.
Compare with care: the assays were run in different laboratories. Several values in a cell are separate wells, animals, samples, runs or records. Changes are numbered by the printed parent chain. ± gives the spread as reported.
Atg9 residues 1-255: Atg9 fragment (Saccharomyces cerevisiae)
B1: SIRT5 R105A (Homo sapiens, UniProt Q9NXA8); chain ARPSSSMADFRKFFAKAKHIVIISGAGVSAESGVPTFRGAGGYWRKWQAQDLATPLAFAHNPSRVWEFYHYAREVMGSKEPNAGHRAIAECETRLGKQGRRVVVITQNIDELHRKAGTKNLLEIHGSLFKTRCTSCGVVAENYKSPICPALSGKGAPEPGTQDASIPVEKLPRCEEAGCGGLLRPHVVWFGENLDPAILEEVDRELAHCDLCLVVGTSSVVYPAAMFAPQVAARGVPVAEFNTETTPATNRFRFHFQGPCGTTLPEALA
P1: Atg23 dimer, full-length; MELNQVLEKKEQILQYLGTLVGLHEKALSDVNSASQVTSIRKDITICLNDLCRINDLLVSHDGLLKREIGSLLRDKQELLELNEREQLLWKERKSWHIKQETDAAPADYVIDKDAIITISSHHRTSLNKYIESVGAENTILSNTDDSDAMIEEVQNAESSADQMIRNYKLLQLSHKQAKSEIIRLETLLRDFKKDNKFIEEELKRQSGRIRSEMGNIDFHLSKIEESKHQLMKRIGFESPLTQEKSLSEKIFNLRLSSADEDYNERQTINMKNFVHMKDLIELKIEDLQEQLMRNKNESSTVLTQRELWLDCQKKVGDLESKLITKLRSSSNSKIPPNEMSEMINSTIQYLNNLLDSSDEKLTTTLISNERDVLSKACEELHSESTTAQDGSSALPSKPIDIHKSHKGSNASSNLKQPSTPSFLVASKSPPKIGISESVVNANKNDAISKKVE
B2: rCR (Lodderomyces parapsilosis, UniProt A1X808); chain MSIPSSQYGFVFNKQSGLKLRNDLPVHKPKAGQLLLKVDAVGLCHSDLHVIYEGLDCGDNYVMGHEIAGTVAAVGDDVINYKVGDRVACVGPNGCGGCKYCRGAIDNVCKNAFGDWFGLGYDGGYQQYLLVTRPRNLSRIPDNVSADVAAASTDAVLTPYHAIKMAQVSPTSNILLIGAGGLGGNAIQVAKAFGAKVTVLDKKKEARDQAKKLGADAVYETLPESISPGSFSACFDFVSVQATFDVCQKYVEPKGVIMPVGLGAPNLSFNLGDLALREIRILGSFWGTTNDLDDVLKLVSEGKVKPVVRSAKLKELPEYIEKLRNNAYEGRVVFNP
B3: UGT76G1 (Stevia rebaudiana, UniProt Q6VAB4); chain MENKTETTVRRRRRIILFPVPFQGHINPILQLANVLYSKGFSITIFHTNFNKPKTSNYPHFTFRFILDNDPQDERISNLPTHGPLAGMRIPIINEHGADELRRELELLMLASEEDEEVSCLITDALWYFAQSVADSLNLRRLVLMTSSLFNFHAHVSLPQFDELGYLDPDDKTRLEEQASGFPMLKVKDIKSAYSNWQILKEILGKMIKQTKASSGVIWNSFKELEESELETVIREIPAPSFLIPLPKHLTASSSSLLDHDRTVFQWLDQQPPSSVLYVSFGSTSEVDEKDFLEIARGLVDSKQSFLWVVRPGFVKGSTWVEPLPDGFLGERGRIVKWVPQQEVLAHGAIGAFWTHSGWNSTLESVCEGVPMIFSDFGLDQPLNARYMSDVLKVGVYLENGWERGEIANAIRRVMVDEEGEYIRQNARVLKQKADVSLMKGGSSYESLESLVSYISSL
Chain of UniProt P12383 (whole entry, looked up): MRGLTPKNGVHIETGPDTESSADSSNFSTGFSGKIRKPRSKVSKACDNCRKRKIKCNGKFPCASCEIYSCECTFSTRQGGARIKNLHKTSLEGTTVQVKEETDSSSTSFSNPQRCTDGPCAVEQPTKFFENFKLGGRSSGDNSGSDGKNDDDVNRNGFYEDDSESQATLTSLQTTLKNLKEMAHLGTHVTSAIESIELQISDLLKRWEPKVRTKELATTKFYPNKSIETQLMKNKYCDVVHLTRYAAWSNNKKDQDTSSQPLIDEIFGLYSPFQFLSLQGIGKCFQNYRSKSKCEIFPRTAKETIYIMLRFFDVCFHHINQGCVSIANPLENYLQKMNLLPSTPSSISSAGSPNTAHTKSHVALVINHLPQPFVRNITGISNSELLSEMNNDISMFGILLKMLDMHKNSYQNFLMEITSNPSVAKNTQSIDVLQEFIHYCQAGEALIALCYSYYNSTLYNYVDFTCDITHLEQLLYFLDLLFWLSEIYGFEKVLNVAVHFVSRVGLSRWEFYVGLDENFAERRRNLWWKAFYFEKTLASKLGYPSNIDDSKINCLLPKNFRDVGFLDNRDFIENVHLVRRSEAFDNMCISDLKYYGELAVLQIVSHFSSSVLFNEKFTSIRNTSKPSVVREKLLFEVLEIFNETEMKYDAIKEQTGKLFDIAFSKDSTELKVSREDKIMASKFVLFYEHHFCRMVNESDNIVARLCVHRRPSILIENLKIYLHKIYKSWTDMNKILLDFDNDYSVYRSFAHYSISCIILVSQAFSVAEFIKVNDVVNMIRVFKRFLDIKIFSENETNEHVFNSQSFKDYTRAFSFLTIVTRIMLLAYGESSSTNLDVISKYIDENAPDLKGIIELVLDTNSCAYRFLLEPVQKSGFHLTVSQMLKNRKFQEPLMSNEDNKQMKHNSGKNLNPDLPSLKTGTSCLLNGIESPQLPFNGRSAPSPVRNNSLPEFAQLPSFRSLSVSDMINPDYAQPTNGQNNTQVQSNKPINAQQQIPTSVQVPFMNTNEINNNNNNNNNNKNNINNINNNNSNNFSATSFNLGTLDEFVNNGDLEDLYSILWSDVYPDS

CC(C)C[C@H](NC(=O)[C@H](Cc1ccc(O)cc1)NC(=O)[C@@H](CCCNC(=N)N)NC(=O)[C@@H](CO)NC(=O)[C@H](Cc1ccccc1)NC(=O)[C@H](CC1CCCCC1)NC(=O)[C@H](CC(=O)O)NC(=O)CN1CCN(CC(=O)O)CCN(CC(=O)O)CCN(CC(=O)O)CC1)C(=O)N[C@@H](Cc1c[nH]c2ccccc12)C(=O)N[C@@H](CO)C(=O)O [copper-64 labelled]  activity concentration (human, liver; concentration not given, 3 h): 10600 Bq/mL and 17100 Bq/mL and 17300 Bq/mL and 11800 Bq/mL and 20400 Bq/mL and 12100 Bq/mL
B1 (SIRT5 R105A)  kcat (CSCC[C@H](NC(=O)[C@H](CC(C)C)NC(=O)[C@H](CCCCNC(C)=O)NC(=O)[C@H](CCCCN)NC(=O)[C@H](Cc1c[nH]cn1)NC(=O)[C@H](CCCNC(=N)N)NC(=O)[C@H](CO)NC(=O)[C@@H](NC(=O)[C@H](CO)NC(=O)[C@H](CCC(N)=O)NC(=O)CNC(=O)[C@H](CCCCN)NC(=O)[C@@H](N)CCCCN)[C@@H](C)O)C(=O)N[C@@H](Cc1ccccc1)C(=O)N[C@@H](CCCCN)C(=O)N[C@H](C(=O)N[C@@H](CCC(=O)O)C(=O)NCC(=O)O)[C@@H](C)O; steady-state kinetics; pH 7.5, 37 °C, with: saturating NAD+): 0.0175 ± 0.0021 s⁻¹
P1 A377E  response (Atg9 residues 1-255; BLI; 8 µM, steady state, read off a plot): 0.016 nm
B2 (rCR)  kcat/Km (CC(=O)c1cccc(Cl)c1; steady-state kinetics; pH 7, 30 °C, with: NADH 0.5 mM): 1200 M⁻¹ s⁻¹
CCCC[C@H](NC(=O)CCCCCCCNC(=O)CN1CCN(CC(=O)O)CCN(CC(=O)O)CC1)C(=O)N[C@H]1CC(=O)NCCCC[C@@H](C(N)=O)NC(=O)[C@H](Cc2c[nH]c3ccccc23)NC(=O)[C@H](CCCNC(=N)N)NC(=O)[C@@H](Cc2ccccc2)NC(=O)[C@H](Cc2c[nH]cn2)NC1=O [technetium-99m labelled]  tissue uptake (C57 mouse, brain; intravenous, 0.037 MBq, 24 h): 0.01 ± 0.01 %ID/g
USP16 ZnF-UBP N85Y (Homo sapiens)  Kd (ubiquitin mature (UniProt P0CG48); SPR): 2000 nM
CC(C)C[C@H](NC(=O)[C@@H](CCCCNC(=O)[C@@H](Cc1ccccc1)NC(=O)CCCCCNC(=O)CN1CCN(CC(=O)O)CCN(CC(=O)O)CCN(CC(=O)O)CC1)NC(=O)[C@H](Cc1ccc(O)cc1)NC(=O)[C@H](CO)NC(=O)[C@H](Cc1c[nH]c2ccccc12)NC(=O)[C@H](Cc1c[nH]cn1)NC(=O)[C@@H]1CCC(=O)N1)C(=O)N[C@@H](CCCNC(=N)N)C(=O)N1CCC[C@H]1C(=O)NCC(N)=O [indium-111 labelled]  tissue uptake (female athymic nude mice, brain; intravenous, 0.037 MBq, 0.5 h): 0.05 ± 0.01 %ID/g
AAAATTCCGTGGAAAACC (dsDNA)  binding (PDR1 1-207 (Saccharomyces cerevisiae, UniProt P12383); competition; double-stranded DNA, one strand shown): binds
P1 L323R  response (Atg9 residues 1-255; BLI; 8 µM, steady state, read off a plot): 0.04 nm
CCCC[C@H](NC(=O)COCCOCCNC(=O)CN1CCN(CC(=O)O)CCN(CC(=O)O)CC1)C(=O)N[C@H]1CC(=O)NCCCC[C@@H](C(N)=O)NC(=O)[C@H](Cc2c[nH]c3ccccc23)NC(=O)[C@H](CCCNC(=N)N)NC(=O)[C@@H](Cc2ccccc2)NC(=O)[C@H](Cc2c[nH]cn2)NC1=O [technetium-99m labelled]  tissue uptake (C57 mouse, spleen; intravenous, 0.037 MBq, 0.5 h): 0.85 ± 0.75 %ID/g
B3 (UGT76G1)  kcat/Km (C=C1C[C@@]23CC[C@H]4[C@@](C)(CCC[C@@]4(C)C(=O)O[C@@H]4O[C@H](CO)[C@@H](O)[C@H](O)[C@H]4O)[C@@H]2CC[C@]1(O[C@@H]1O[C@H](CO)[C@@H](O)[C@H](O)[C@H]1O[C@@H]1O[C@H](CO)[C@@H](O)[C@H](O)[C@H]1O)C3; steady-state kinetics; pH 7.25, 40 °C): 14300 M⁻¹ s⁻¹
C=C1CC[C@H](OCCCNC(=O)CCOCCOCCOCCOCCOCCOCCOCCOCCOCCOCCOCCOCCOCCOCCOCCOCCOCCOCCOCCOCCOCCOCCOCCOCCOCCOCCOCCOCCOCCOCCOCCOCCOCCOCCOCCOCCNC(=O)CCN2C(=O)CC(SC[C@H](NC(=O)[C@H](Cc3ccccc3)NC(=O)[C@H](CC(N)=O)NC(=O)[C@H](Cc3c[nH]cn3)NC(=O)[C@@H](NC(=O)[C@H](CC(=O)O)NC(=O)[C@H](CCC(N)=O)NC(=O)[C@H](CC(C)C)NC(=O)[C@H](CCCCN)NC(=O)[C@H](CCCCN)NC(=O)[C@H](CCCNC(=N)N)NC(=O)[C@H](CC(C)C)NC(=O)[C@H](Cc3c[nH]c4ccccc34)NC(=O)[C@H](CCC(=O)O)NC(=O)[C@@H](NC(=O)[C@H](CCCNC(=N)N)NC(=O)[C@H](CCC(=O)O)NC(=O)[C@H](CCSC)NC(=O)[C@H](CO)NC(=O)[C@H](CC(N)=O)NC(=O)[C@H](CC(C)C)NC(=O)[C@H](Cc3c[nH]cn3)NC(=O)[C@H](CCCCN)NC(=O)CNC(=O)[C@H](CC(C)C)NC(=O)[C@H](CC(N)=O)NC(=O)[C@H](Cc3c[nH]cn3)NC(=O)[C@H](CCSC)NC(=O)[C@H](CC(C)C)NC(=O)[C@H](CCC(N)=O)NC(=O)[C@@H](NC(=O)[C@H](CCC(=O)O)NC(=O)[C@H](CO)NC(=O)[C@@H](NC(=O)[C@@H](N)CO)C(C)C)[C@@H](C)CC)C(C)C)C(C)C)C(=O)O)C2=O)C/C1=C/C=C1\CCC[C@]2(C)[C@@H]([C@H](C)CCCC(C)(C)O)CC[C@@H]12 (stereo partly drawn)  bioavailability (rat, plasma; subcutaneous, 300 µg/kg, single dose): 9.7%
